Results pooled from the literature.
Lines come from different studies, so protocols differ. Values joined by “and” are separate records of one study, mostly repeats; a detail may differ. ± gives the spread as reported.
rep main protease: Replicase polyprotein 1ab, main protease (rep, Severe acute respiratory syndrome coronavirus 2, UniProt P0DTD1)

CCOC(=O)CNC(=O)c1ccccc1[Se][Se]c1ccccc1C(=O)NCC(=O)OCC — inhibition (rep main protease; enzyme activity, inhibitor; 40 µM, mean of repeats): 105%
CCc1ccccc1NC(=S)N/N=C/c1ccc(O)cc1O — remaining activity (rep main protease; enzyme activity, jump dilution; 122 µM, 2 h): ~60%
O=C(NC1CCC(F)(F)CC1)C(c1cncnc1)N(C(=O)C(F)Cl)c1ccc(-c2cncs2)cc1 (stereo not shown) — inhibition (rep main protease; enzyme activity, inhibitor; 8.333 µM): 102%
CC(=O)N[C@H](Cc1ccc(O)cc1)C(=O)N[C@@H](CCCNC(=N)N)C(=O)N[C@@H](Cc1ccccc1)C(=O)N[C@H]1CCC[C@@H]1C(=O)N[C@@H](CCCNC(=N)N)C(=O)N[C@@H](CC(N)=O)C(=O)N[C@H]1CCC[C@@H]1C(=O)N[C@H](C(=O)N[C@@H](Cc1ccccc1)C(=O)N[C@H]1CCC[C@@H]1C(=O)N[C@@H](Cc1ccccc1)C(=O)N[C@@H](Cc1ccc(O)cc1)C(=O)N[C@H]1CCC[C@@H]1C(=O)N[C@H](C(=O)N[C@@H](CC(=O)O)C(N)=O)[C@@H](C)O)C(C)C — koff (rep main protease; binding, SPR): 0.00576 s⁻¹
Cc1ccc(OCCN(C)C)cc1C(=O)N[C@H](C)c1cc(-c2ccco2)nc2ccccc12 — GFP/mCherry signal ratio (Replicase polyprotein 1ab, papain-like protease (rep, Severe acute respiratory syndrome coronavirus 2, UniProt P0DTD1); reporter gene, cell-based): 11.3 and 0 and 92 and 92.5 and 38.1 and 68
O=C(OCC(=O)c1ccc([N+](=O)[O-])cc1)/C(=C/c1ccc(Cl)cc1)NC(=O)c1ccccc1 — Vmax (rep main protease; enzyme activity, inhibitor; 0.75 µM): 28 ± 1.7 RFU/s
COc1ccc(-c2cc(=O)c3c(O)cc(O)c(-c4cc(-c5cc(=O)c6c(O)cc(OC)cc6o5)ccc4OC)c3o2)cc1 — kinact (rep main protease; enzyme activity, inhibitor; with preincubation): 0.000167 s⁻¹
CNC(=O)C[C@H](Cc1ccccc1)NC(=O)[C@@H](Cc1ccc(Cl)cc1Cl)NC(=O)[C@H](N)Cc1ccccc1C#N — remaining activity (rep main protease; 0.0001693 µM): 101%
CC1(C)C2CCC(CNC(=O)c3ccccc3[Se][Se]c3ccccc3C(=O)NCC3CCC4CC3C4(C)C)C1C2 (stereo not shown) — inhibition (rep main protease; enzyme activity, inhibitor; 40 µM): 66.4% and 71.6%
CC1CC(c2ccc(C(=O)O)cc2F)=NN1c1ccc(C#N)c(Cl)c1 (stereo not shown) — lipophilic ligand efficiency (Replicase polyprotein 1ab, nsp14 methyltransferase (rep, Severe acute respiratory syndrome coronavirus 2, UniProt P0DTD1)): 1.9
CNC(=O)C[C@H](Cc1ccc(F)cc1)NC(=O)[C@@H](Cc1ccc(Cl)cc1Cl)NC(=O)[C@H](N)Cc1ccccc1C#N — remaining activity (rep main protease; 0.0001693 µM): 81.5%
COc1cc2c(cc1OC)-c1c(OC)c(OC)cc3c1[C@H](C2)N(C)CC3 — relative STD saturation (rep main protease; STD NMR, item: proton H-16; relative to: H-8 signal): 47.2%
[2H]C1([2H])CC[C@@H](C[C@@H](C#N)NC(=O)[C@@H]2[C@@H]3[C@H](CN2C(=O)[C@@H](NC(=O)C(F)F)C(C)(C)C)C3(C)C)C(=O)N1 — reactivation half-life (rep main protease; enzyme activity, inhibitor; concentration not given): ~123 h
O=C(CCl)N1N=C(c2cccs2)CC1c1cccs1 (stereo not shown) — kinact/Ki (rep main protease; inhibitor, biochemical): 777 M⁻¹ s⁻¹
CC(C)=CCc1c(O)cc(O)c2c(=O)cc(-c3ccc(O)cc3)oc12 — ATPase inhibition (Replicase polyprotein 1ab, nsp13 helicase (rep, Severe acute respiratory syndrome coronavirus 2, UniProt P0DTD1); ATPase activity, inhibitor; concentration not given, together with: DTT): no effect
CCCCCCCCCCCCCCCC(=O)N[C@@H](CCC(=O)NCCOCCOCCC(=O)NCCOCCOCCC(=O)NCCCC[C@H](NC(=O)[C@H](CC(=O)O)NC(=O)[C@H](CC(C)C)NC(=O)[C@H](Cc1ccc(O)cc1)NC(=O)[C@H](CCCCN)NC(=O)[C@H](CO)NC(=O)[C@H](Cc1ccc(O)cc1)NC(=O)[C@H](CC(=O)O)NC(=O)[C@H](CO)NC(=O)[C@@H](NC(=O)[C@H](Cc1ccccc1)NC(=O)[C@@H](NC(=O)CNC(=O)[C@H](CCC(N)=O)NC(=O)[C@@H](CO)NC(=O)[C@@H](N)Cc1c[nH]cn1)[C@@H](C)O)[C@@H](C)O)C(=O)N[C@@H](CCCNC(=N)N)C(=O)N[C@@H](CCCNC(=N)N)C(=O)N[C@@H](C)C(=O)N[C@@H](CCC(N)=O)C(=O)N[C@@H](CC(=O)O)C(=O)N[C@@H](Cc1ccccc1)C(=O)N[C@H](C(=O)N[C@@H](CCC(N)=O)C(=O)N[C@@H](Cc1c[nH]c2ccccc12)C(=O)N[C@@H](CC(C)C)C(=O)N[C@@H](CC(C)C)C(=O)N[C@@H](CC(N)=O)C(=O)N[C@H](C(=O)NCC(=O)NCC(=O)N1CCC[C@H]1C(=O)N[C@@H](CO)C(=O)N[C@@H](CO)C(=O)NCC(=O)N[C@@H](C)C(=O)N1CCC[C@H]1C(=O)N1CCC[C@H]1C(=O)N1CCC[C@H]1C(=O)N[C@@H](CO)C(N)=O)[C@@H](C)O)C(C)C)C(=O)O — Tmax (rhesus monkey; subcutaneous, 5 µg/kg, single dose): 1.67 ± 0.516 h

A few entries again:
COc1cc2c(cc1OC)-c1c(OC)c(OC)cc3c1[C@H](C2)N(C)CC3 — relative STD saturation (rep main protease; STD NMR, item: proton H-16; relative to: H-8 signal): 47.2%
